Assay results gathered from unrelated publications.
Each line is one published result; not all experiments were run side by side. Numbers after ± are the reported error.
Chain of UniProt O42275 (whole entry, looked up): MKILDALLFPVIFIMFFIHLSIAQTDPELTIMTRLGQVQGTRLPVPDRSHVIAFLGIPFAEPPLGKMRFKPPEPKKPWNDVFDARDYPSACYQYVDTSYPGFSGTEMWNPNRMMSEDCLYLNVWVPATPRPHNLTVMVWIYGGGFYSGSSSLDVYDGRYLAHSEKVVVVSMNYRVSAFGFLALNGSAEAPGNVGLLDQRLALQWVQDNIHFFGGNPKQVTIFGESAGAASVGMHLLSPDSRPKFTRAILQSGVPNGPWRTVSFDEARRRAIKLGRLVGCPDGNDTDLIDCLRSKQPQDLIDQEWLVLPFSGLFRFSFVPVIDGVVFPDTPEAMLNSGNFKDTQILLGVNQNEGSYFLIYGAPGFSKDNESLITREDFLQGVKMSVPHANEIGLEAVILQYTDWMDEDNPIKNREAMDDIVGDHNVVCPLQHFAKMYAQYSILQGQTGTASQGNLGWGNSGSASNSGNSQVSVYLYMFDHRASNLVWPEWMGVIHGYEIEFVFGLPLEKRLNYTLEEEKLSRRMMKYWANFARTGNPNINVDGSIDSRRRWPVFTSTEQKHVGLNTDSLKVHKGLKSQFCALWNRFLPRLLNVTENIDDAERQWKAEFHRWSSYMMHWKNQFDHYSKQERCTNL
Chain of UniProt Q32ZE1 (whole entry, looked up): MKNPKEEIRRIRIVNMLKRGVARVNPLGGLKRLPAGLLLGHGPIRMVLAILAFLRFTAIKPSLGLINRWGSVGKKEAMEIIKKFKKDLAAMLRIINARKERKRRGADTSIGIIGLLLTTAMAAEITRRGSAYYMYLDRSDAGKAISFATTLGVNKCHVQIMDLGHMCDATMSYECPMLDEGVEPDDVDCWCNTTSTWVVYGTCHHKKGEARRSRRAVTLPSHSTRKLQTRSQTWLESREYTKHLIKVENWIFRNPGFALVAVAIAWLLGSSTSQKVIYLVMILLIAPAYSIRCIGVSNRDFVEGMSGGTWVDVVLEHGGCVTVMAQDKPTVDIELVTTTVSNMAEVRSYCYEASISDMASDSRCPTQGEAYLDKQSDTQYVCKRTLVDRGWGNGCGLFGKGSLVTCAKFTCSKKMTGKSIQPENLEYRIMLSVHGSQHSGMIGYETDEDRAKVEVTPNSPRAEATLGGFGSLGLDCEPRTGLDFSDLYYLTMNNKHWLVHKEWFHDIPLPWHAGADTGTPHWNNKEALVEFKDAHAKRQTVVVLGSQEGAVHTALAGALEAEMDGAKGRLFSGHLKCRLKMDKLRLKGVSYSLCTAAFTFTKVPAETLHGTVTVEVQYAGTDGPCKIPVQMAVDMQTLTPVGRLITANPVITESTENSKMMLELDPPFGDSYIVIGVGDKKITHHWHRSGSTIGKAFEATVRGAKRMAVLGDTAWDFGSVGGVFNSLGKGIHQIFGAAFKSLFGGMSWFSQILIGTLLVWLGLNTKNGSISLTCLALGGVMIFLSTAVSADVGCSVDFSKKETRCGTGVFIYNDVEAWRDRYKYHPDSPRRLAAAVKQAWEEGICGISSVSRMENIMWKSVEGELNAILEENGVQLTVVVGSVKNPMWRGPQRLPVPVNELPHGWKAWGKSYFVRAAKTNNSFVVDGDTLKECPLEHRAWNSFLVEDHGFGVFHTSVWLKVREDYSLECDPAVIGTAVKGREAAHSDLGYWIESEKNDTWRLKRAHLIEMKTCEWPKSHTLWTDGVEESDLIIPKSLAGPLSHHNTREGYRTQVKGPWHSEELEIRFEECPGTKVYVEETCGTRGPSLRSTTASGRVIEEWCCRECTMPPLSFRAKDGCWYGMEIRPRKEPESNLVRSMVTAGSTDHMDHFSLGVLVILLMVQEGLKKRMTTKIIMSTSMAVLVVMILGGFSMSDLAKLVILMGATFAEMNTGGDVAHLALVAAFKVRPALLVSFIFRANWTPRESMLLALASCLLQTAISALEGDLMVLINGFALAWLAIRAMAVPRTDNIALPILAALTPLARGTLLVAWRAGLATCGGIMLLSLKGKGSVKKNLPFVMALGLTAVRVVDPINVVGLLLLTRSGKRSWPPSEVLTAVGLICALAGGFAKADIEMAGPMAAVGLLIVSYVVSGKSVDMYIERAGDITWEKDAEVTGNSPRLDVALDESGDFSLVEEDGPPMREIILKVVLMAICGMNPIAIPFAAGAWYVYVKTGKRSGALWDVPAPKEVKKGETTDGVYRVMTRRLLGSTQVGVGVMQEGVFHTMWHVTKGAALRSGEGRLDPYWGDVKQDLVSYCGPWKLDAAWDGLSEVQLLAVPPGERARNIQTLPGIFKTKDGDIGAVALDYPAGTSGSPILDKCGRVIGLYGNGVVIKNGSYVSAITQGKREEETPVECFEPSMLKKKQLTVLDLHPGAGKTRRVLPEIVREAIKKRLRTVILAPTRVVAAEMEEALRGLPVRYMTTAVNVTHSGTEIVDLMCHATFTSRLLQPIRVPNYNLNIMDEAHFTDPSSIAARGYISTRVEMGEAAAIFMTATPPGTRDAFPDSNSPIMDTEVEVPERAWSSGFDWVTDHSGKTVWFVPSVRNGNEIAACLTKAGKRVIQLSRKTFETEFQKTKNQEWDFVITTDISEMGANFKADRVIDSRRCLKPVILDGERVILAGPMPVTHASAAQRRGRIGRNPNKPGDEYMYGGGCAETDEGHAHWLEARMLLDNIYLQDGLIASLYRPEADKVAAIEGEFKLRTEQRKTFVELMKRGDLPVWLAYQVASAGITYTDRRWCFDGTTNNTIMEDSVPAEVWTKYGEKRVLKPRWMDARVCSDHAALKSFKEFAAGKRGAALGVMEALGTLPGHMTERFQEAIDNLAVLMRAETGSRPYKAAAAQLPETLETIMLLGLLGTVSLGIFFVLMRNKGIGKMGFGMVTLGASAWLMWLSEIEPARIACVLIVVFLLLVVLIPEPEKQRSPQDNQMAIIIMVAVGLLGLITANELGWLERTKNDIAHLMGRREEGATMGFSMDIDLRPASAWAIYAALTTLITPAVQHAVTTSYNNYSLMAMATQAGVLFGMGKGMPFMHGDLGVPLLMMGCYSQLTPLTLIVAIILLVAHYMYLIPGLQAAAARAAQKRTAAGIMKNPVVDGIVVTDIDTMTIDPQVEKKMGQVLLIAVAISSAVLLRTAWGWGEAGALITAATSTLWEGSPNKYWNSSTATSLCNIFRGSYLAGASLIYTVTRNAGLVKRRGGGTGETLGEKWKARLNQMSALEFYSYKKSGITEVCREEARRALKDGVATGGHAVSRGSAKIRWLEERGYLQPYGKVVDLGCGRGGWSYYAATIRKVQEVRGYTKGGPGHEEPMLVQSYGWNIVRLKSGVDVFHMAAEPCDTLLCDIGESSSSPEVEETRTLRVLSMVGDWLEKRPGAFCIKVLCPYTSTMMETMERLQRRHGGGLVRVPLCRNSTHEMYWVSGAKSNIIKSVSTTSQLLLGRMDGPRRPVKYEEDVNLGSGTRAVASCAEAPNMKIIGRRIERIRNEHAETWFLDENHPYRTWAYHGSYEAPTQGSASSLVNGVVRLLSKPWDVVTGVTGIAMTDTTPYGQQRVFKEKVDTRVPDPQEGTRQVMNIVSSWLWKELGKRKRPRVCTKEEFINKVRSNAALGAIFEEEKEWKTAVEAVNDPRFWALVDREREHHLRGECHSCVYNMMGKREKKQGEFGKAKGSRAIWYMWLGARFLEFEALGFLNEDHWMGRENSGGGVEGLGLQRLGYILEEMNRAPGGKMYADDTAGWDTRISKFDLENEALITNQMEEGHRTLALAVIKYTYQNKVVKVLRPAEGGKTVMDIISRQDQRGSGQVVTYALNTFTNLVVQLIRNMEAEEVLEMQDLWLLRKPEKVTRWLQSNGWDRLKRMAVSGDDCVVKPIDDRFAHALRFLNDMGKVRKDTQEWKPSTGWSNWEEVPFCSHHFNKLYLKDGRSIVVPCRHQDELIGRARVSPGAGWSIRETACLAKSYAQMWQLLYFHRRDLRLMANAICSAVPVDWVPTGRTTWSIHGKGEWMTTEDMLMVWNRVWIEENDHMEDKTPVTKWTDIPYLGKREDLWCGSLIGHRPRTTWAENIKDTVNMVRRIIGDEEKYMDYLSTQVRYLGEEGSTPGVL
Chain of UniProt Q16832 (whole entry, looked up): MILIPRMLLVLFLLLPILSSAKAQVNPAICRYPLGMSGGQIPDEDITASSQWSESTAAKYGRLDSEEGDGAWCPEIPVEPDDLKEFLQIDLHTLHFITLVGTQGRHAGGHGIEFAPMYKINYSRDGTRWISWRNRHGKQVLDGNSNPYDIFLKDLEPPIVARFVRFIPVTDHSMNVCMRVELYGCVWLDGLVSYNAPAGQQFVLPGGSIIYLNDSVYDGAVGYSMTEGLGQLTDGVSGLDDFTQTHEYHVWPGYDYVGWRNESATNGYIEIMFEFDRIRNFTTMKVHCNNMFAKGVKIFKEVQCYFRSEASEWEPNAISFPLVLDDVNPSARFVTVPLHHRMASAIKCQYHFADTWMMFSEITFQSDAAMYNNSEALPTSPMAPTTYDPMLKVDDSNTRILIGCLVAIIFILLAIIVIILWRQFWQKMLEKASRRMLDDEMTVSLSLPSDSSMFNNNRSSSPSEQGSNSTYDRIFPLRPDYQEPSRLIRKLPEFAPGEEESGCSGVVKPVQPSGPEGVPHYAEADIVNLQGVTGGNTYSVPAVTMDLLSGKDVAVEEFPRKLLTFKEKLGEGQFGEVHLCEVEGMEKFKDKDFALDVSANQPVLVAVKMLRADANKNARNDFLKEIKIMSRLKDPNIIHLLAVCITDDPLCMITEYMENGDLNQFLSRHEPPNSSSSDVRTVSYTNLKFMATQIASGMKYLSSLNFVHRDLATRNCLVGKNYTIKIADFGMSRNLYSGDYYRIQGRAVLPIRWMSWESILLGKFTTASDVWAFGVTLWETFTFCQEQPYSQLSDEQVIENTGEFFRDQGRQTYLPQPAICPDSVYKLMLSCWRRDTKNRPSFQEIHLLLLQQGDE

SMILES | target | assay | setting | inhibition [%]
CN(/N=C/c1ccccc1C(=O)O)c1nc(-c2ccccc2Cl)cs1 | DDR2 (Homo sapiens, UniProt Q16832) | enzyme activity, inhibitor | 1 µM | -41.8
CC(C)[C@H]1NC(=O)C[C@H]2/C=C/CCSSC[C@@H](NC1=O)C(=O)N[C@H](Cc1cccc3ccccc13)C(=O)NCC(=O)O2 | DYRK1A (Homo sapiens, UniProt Q13627) | enzyme activity, inhibitor | 10 µM | 1.5
COc1ccccc1-n1cc(CCS(=O)(=O)F)nn1 | ache (Electrophorus electricus, UniProt O42275) | Ellman | 20 µM | 21.7 ± 1.9
O=C1N=CN(c2ccccc2)C12CCN(Cc1ccccc1)CC2 | PDE6D (Homo sapiens, UniProt O43924) | enzyme activity, inhibitor | 5 µM | 34.2
C[C@H](NCc1ccc(-c2ccc(C(F)(F)F)cc2)cc1)C(N)=O | BRAF (Homo sapiens, UniProt P15056) | cell-free assay, competition with immobilised ligand | 1 µM | 6
CN(C)[C@H]1C[C@@]23CC[C@@]4(O2)C(=CC[C@]2(C)[C@@H](c5ccc6ccncc6c5)CC[C@H]24)C=C3[C@@H](O)[C@@H]1O | ATR (Homo sapiens, UniProt Q13535) | ATP probe labelling, inhibitor, KiNativ profiling | 1 µM | -3.9
CN[C@@H]1[C@H](O)[C@H](NC)[C@H]2O[C@]3(O)[C@H](O[C@@H]2[C@H]1O)O[C@H](C)C[C@H]3NC(=O)Cc1cc(Cl)ccn1 | GABBR1 (Homo sapiens, UniProt Q9UBS5) |  | 10 µM | 1
CCC1CC(c2ccc(C(=O)O)cc2C)=NN1c1ccc(C#N)c(Cl)c1 (stereo not shown) | EHMT1 (Homo sapiens, UniProt Q9H9B1) | enzyme activity, inhibitor | 10 µM | 3
O=C(CN1CN(c2ccccc2)C2(CCN(C(=O)c3cnc4[nH]ncc4c3)CC2)C1=O)NCC(F)(F)F | EIF2AK2 (Homo sapiens, UniProt P19525) | inhibitor | concentration not given | < 50
O=C(NC1CCN(c2ncnc3[nH]cnc23)CC1)c1cccc(NS(=O)(=O)c2ccc(C(F)(F)F)cc2)c1 | Genome polyprotein, NS5 methyltransferase domain (Zika virus, UniProt Q32ZE1) | NS5 enzyme activity, inhibitor | 100 µM | -2.45
CC(=O)NC[C@@H]1[C@@H](O)C[C@H]2[C@H](O)C[C@@H](CO)N12 | human placental β-N-acetylglucosaminidase |  | 0.171 µM, run 1, with: p-nitrophenyl GlcNAc | 71.4
CS(C)(=O)=Nc1ccc(-c2ccc(-c3nc4cc(O[C@@H]5CO[C@H]6[C@@H]5OC[C@H]6O)[nH]c4cc3F)cc2)cc1 | PRKX (Homo sapiens, UniProt P51817) | enzyme activity, inhibitor | 10 µM | -2
C[n+]1cn([C@@H]2O[C@H](COP(=O)(O)OP(=O)([O-])OP(=O)(O)O)[C@@H](O)[C@H]2O)c2nc(N)nc(O)c21 | mRNA decapping complex subunit 2, with Dcp1 (dcp2, Schizosaccharomyces pombe, UniProt O13828) |  | 200 µM, 0.5 h | 15.1

A few entries again:
SMILES | target | assay | setting | inhibition [%]
C[C@H](NCc1ccc(-c2ccc(C(F)(F)F)cc2)cc1)C(N)=O | BRAF (Homo sapiens, UniProt P15056) | cell-free assay, competition with immobilised ligand | 1 µM | 6
O=C1N=CN(c2ccccc2)C12CCN(Cc1ccccc1)CC2 | PDE6D (Homo sapiens, UniProt O43924) | enzyme activity, inhibitor | 5 µM | 34.2
